Measured values gathered from unrelated publications.
Each line is one published result; not all experiments were run side by side.

| Compound | test system | conditions | measurement | result |
| --- | --- | --- | --- | --- |
| COC(=O)c1cc(=O)n(C)c2c(-c3ccc(OC)cc3)csc12 | dichloromethane | 10 µM | excitation maximum | 371 nm |
| CC1=CC(C)=[N+]2C1=C(CCCC(=O)NCC1CCC(C(=O)NC(Cc3ccc4ccccc4c3)C(=O)NCCCCC(NC(=O)NC(CCC(=O)O)C(=O)O)C(=O)O)CC1)c1c(C)cc(C)n1[B-]2(F)F (stereo not drawn) | acetonitrile/water | – | excitation wavelength | 495 nm |
| Nc1ncnc2c1nc(-n1nnc3c1CCC1C(CO)C1CC3)n2C1OC(CO)C(O)C1O (mixture of isomers) | methanol | – | excitation maximum | 280 nm |
| CC1=CC(C)=[N+]2C1=C(c1ccc(C[P+](c3ccccc3)(c3ccccc3)C3CCCCC3)cc1)c1c(C)cc(C)n1[B-]2(F)F | PBS | 10 µM, pH 7.4, 298 K | excitation maximum | 497 nm |
| Cc1nc(N(C)C)ccc1N | phosphate buffer with BSA | pH 8, 37 °C, 1% DMSO | excitation maximum | 328 nm |
| CC1=CC(C)=[N+]2C1=C(CCCC(=O)NCCCCCC(=O)NCCCC[C@H](NC(=O)N[C@@H](CCC(=O)O)C(=O)O)C(=O)O)c1c(C)cc(C)n1[B-]2(F)F | acetonitrile/water | – | excitation wavelength | 496 nm |
| Nc1nc(-n2nnc3c2CCC2C(CO)C2CC3)nc2c1ncn2C1OC(CO)C(O)C1O (mixture of isomers) | methanol | – | excitation maximum | 270 nm |
| O=c1c(Br)c2oc3c(CN(Cc4ccccn4)Cc4cnccn4)c(O)ccc3nc-2c2ccccc12 | aqueous buffer | pH 7.0, metal-free | excitation maximum | 514 nm |
| NCCC(=O)N1Cc2ccccc2-c2c(nnn2-c2nc(N)c3ncn(C4OC(CO)C(O)C4O)c3n2)-c2ccccc21 (mixture of isomers) | methanol | – | excitation maximum | 295 nm |
| O=c1c(Br)c2oc3c(CN(Cc4ccccn4)Cc4cnccn4)c(O)c(Cl)cc3nc-2c2ccccc12 | aqueous buffer | pH 7.0, metal-free | excitation maximum | 550 nm |
| CC1=CC(C)=[N+]2C1=C(c1ccc(C[P+](c3ccccc3)(C3CCCCC3)C3CCCCC3)cc1)c1c(C)cc(C)n1[B-]2(F)F | PBS | 10 µM, pH 7.4, 298 K | excitation maximum | 497 nm |
| O=c1[nH]c(=O)n(C2OC(CO)C(O)C2O)cc1-n1nnc2c1CCC1C(CO)C1CC2 (mixture of isomers) | alkaline phosphate buffer | – | excitation maximum | 388 nm |

Excerpt of the above:
| Compound | test system | conditions | measurement | result |
| --- | --- | --- | --- | --- |
| Cc1nc(N(C)C)ccc1N | phosphate buffer with BSA | pH 8, 37 °C, 1% DMSO | excitation maximum | 328 nm |
| CC1=CC(C)=[N+]2C1=C(CCCC(=O)NCCCCCC(=O)NCCCC[C@H](NC(=O)N[C@@H](CCC(=O)O)C(=O)O)C(=O)O)c1c(C)cc(C)n1[B-]2(F)F | acetonitrile/water | – | excitation wavelength | 496 nm |
